Measured values gathered from unrelated publications.
Compare with care: the assays were run in different laboratories. “And” joins repeats or separate records; there may be more than shown. Values after ≈ are worked out from the molar mass of the structure shown.

Compound = CC(C)c1nc(N(C)S(C)(=O)=O)nc(-c2ccc(F)cc2)c1/C=C/[C@@H](O)C[C@@H](O)CC(=O)O; organism = human coronavirus OC43; test = virus-induced cell killing; test system = MRC-5; conditions = screen; endpoint = maximum inhibition; value = 28.1%
Compound = OB(O)c1csc2ccccc12; organism = Staphylococcus aureus; test system = USA300 wild type; conditions = 5 µM; scale = reference: untreated; endpoint = growth relative to untreated; value = 69.3% and 79.4% and 89.7% and 84% and 72.7%
Compound = CO/N=C(\C(=O)N[C@@H]1C(=O)N2C(C(=O)O)=C(CSC(=O)c3ccco3)CS[C@H]12)c1csc(N)n1; organism = Staphylococcus aureus; test system = CAAS-2019-CAAS-2019-10 clinical blaZ-resistant isolate, PBS; endpoint = MBC; value = 16 µg/mL
Compound = CC(C)C[C@H](NC(=O)CNC(=O)CNC(=O)CNC(=O)[C@H](Cc1ccc(O)cc1)NC(=O)[C@H](CC(C)C)NC(=O)[C@@H](NC(=O)CNC(=O)[C@H](Cc1ccc(O)cc1)NC(=O)[C@H](CCCCN)NC(=O)[C@H](CC(N)=O)NC(=O)[C@@H](NC(=O)[C@H](CCCCN)NC(=O)[C@H](Cc1c[nH]c2ccccc12)NC(=O)CN)[C@@H](C)O)[C@@H](C)O)C(=O)N[C@@H](CCCCN)C(=O)N[C@@H](CCCCN)C(=O)N[C@@H](CC(C)C)C(=O)N[C@@H](CC(C)C)C(=O)N[C@@H](CC(C)C)C(=O)N[C@@H](CC(C)C)C(=O)N[C@@H](CC(C)C)C(=O)N[C@@H](CCCCN)C(=O)N[C@@H](CCCCN)C(=O)N[C@@H](CC(C)C)C(=O)NCC(=O)O; organism = Staphylococcus aureus; test system = ATCC 25923; conditions = together with: 1 mM MgCl2; endpoint = MIC; value = 16 µg/mL (≈ 5.59 µM)
Compound = C=CC[C@@H]1c2ccc(OC)c(OC)c2CN2CCc3cc4c(cc3[C@H]12)OCO4; organism = Staphylococcus aureus; test system = P2rx7 A312V/A312V mice, skin wound infection; conditions = dose not given, day 5; scale = reference: day 0; endpoint = relative wound size; value = 0.98 and 0.37 and 0.65 and 0.85 and 0.6
Compound = Cc1c2c(nn1C)CSCc1cc(n(C)n1)CSc1cc(c3ccccc3c1)OCCCc1c(C(=O)O)n(C)c3c-2c(Cl)ccc13; organism = Staphylococcus aureus; test = label-free quantitative proteomics, item: SAOUHSC_00113 protein; test system = SA113; conditions = concentration not given; scale = reference: untreated control; endpoint = log2 fold change; value = -5.87
Compound = CC[C@H](C)[C@H](NC(=O)[C@H](C)NC(=O)[C@H](CCCCN)NC(=O)[C@H](CC(C)C)NC(=O)[C@H](C)NC(=O)[C@@H](NC(=O)[C@H](Cc1c[nH]cn1)NC(=O)[C@H](CC(C)C)NC(=O)[C@@H](NC(=O)[C@@H](NC(=O)[C@H](CCCCN)NC(=O)[C@H](C)NC(=O)[C@H](C)NC(=O)[C@H](CO)NC(=O)[C@H](CCCCN)NC(=O)[C@H](Cc1ccccc1)NC(=O)[C@@H](NC(=O)[C@H](CCCCN)NC(=O)[C@H](CC(C)C)NC(=O)[C@H](Cc1ccccc1)NC(=O)[C@H](CO)NC(=O)[C@H](CCCCN)NC(=O)[C@H](Cc1c[nH]c2ccccc12)NC(=O)[C@H](CCCCN)NC(C)=O)[C@@H](C)O)[C@@H](C)O)C(C)C)[C@@H](C)O)C(=O)N[C@@H](CO)C(=O)N[C@@H](CO)C(N)=O; organism = Staphylococcus aureus; test system = ATCC 29213; endpoint = MBC range; value = 8 µg/mL (≈ 2.73 µM)
Compound = CN[C@H](CC(C)C)C(=O)N[C@H]1C(=O)N[C@@H](CC(N)=O)C(=O)N[C@H]2C(=O)N[C@H]3C(=O)N[C@H](C(=O)N[C@H](C(=O)O)c4cc(O)cc(O)c4-c4cc3ccc4O)[C@H](O)c3ccc(c(Cl)c3)Oc3cc2cc(c3O[C@@H]2O[C@H](CO)[C@@H](O)[C@H](O)[C@H]2O[C@H]2C[C@](C)(N)[C@H](O)[C@H](C)O2)Oc2ccc(cc2Cl)[C@H]1O; organism = Staphylococcus aureus; test system = MRSA strain 3; endpoint = MIC; value = 2 µg/mL (≈ 1.38 µM)
Compound = O=C(O)C(Cl)Cl; organism = human coronavirus OC43; test = virus-induced cell killing; test system = MRC-5; conditions = screen; endpoint = maximum inhibition; value = 14.7%
Compound = CCCCCCCCCC(=O)N[C@@H](Cc1c[nH]c2ccccc12)C(=O)N[C@H](CC(N)=O)C(=O)N[C@@H](CC(=O)O)C(=O)N[C@@H]1C(=O)NCC(=O)N[C@@H](CCCN)C(=O)N[C@@H](CC(=O)O)C(=O)N[C@H](C)C(=O)N[C@@H](CC(=O)O)C(=O)NCC(=O)N[C@H](CO)C(=O)N[C@@H]([C@H](C)CC(=O)O)C(=O)N[C@@H](CC(=O)c2ccccc2N)C(=O)O[C@@H]1C; organism = Staphylococcus aureus; test = broth microdilution; test system = VISA LIM strain 2, Mueller-Hinton broth, Mg2+ 10 mg/L; conditions = 16 h, together with: Ca2+ 5 mM; endpoint = MIC; value = 0.125 µg/mL (≈ 0.0771 µM)
Compound = CC[C@H](C)[C@H](NC(=O)[C@H](CCCCN)NC(=O)[C@H](CCCCN)NC(=O)[C@H](Cc1ccccc1)NC(=O)[C@@H](NC(=O)[C@@H](NC(=O)[C@H](CCCNC(=N)N)NC(=O)[C@H](Cc1ccccc1)NC(=O)[C@@H](NC(=O)[C@H](CCCCN)NC(=O)[C@H](CCCCN)NC(=O)[C@@H](N)CCSC)[C@@H](C)CC)C(C)C)[C@@H](C)CC)C(=O)N[C@@H](CC(C)C)C(=O)N[C@@H](CCCCN)C(=O)N[C@@H](CCCNC(=N)N)C(=O)N[C@@H](CC(C)C)C(=O)N[C@H](C(=O)N[C@H](C(=O)O)C(C)C)[C@@H](C)CC; organism = Staphylococcus aureus; test = broth microdilution; test system = ATCC 25923; conditions = 16 to 18 h; endpoint = MIC; value = 4 µg/mL (≈ 1.76 µM)

Excerpt of the above:
Compound = CO/N=C(\C(=O)N[C@@H]1C(=O)N2C(C(=O)O)=C(CSC(=O)c3ccco3)CS[C@H]12)c1csc(N)n1; organism = Staphylococcus aureus; test system = CAAS-2019-CAAS-2019-10 clinical blaZ-resistant isolate, PBS; endpoint = MBC; value = 16 µg/mL
